Measured values from different studies.
Every numbered part comes from another study and shows a few of its results, in no order.
UniProt P53667, sequence (whole entry, looked up): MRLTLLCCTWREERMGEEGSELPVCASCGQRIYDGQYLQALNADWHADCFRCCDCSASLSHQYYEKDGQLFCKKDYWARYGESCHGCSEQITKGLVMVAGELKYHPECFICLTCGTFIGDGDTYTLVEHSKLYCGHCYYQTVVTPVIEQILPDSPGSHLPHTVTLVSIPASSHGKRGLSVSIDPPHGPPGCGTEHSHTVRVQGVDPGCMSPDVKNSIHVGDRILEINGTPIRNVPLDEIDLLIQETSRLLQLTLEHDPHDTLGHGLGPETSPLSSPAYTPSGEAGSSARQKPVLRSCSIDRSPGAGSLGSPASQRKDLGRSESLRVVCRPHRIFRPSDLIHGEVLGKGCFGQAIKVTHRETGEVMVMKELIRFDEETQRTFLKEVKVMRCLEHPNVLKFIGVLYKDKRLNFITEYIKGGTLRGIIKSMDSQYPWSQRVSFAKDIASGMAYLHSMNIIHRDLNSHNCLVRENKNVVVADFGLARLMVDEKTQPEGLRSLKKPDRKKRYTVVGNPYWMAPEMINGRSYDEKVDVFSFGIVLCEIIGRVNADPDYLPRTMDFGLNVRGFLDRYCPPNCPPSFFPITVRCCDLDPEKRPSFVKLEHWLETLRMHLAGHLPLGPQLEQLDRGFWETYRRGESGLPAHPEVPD
UniProt Q9UBE8, sequence (whole entry, looked up): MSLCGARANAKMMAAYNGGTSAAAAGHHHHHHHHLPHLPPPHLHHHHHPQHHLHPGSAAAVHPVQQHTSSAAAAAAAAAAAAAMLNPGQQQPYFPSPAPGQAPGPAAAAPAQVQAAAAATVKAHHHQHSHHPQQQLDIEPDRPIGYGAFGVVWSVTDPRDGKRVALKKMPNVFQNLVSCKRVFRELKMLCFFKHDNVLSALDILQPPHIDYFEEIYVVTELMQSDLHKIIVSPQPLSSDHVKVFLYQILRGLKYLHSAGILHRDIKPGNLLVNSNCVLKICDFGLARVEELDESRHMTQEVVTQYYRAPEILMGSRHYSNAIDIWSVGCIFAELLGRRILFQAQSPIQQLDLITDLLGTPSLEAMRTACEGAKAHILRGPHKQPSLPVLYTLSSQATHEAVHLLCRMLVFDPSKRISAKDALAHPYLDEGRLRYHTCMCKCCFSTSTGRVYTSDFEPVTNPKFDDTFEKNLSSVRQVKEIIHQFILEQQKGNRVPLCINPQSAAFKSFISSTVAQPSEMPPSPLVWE
UniProt P06241, sequence (whole entry, looked up): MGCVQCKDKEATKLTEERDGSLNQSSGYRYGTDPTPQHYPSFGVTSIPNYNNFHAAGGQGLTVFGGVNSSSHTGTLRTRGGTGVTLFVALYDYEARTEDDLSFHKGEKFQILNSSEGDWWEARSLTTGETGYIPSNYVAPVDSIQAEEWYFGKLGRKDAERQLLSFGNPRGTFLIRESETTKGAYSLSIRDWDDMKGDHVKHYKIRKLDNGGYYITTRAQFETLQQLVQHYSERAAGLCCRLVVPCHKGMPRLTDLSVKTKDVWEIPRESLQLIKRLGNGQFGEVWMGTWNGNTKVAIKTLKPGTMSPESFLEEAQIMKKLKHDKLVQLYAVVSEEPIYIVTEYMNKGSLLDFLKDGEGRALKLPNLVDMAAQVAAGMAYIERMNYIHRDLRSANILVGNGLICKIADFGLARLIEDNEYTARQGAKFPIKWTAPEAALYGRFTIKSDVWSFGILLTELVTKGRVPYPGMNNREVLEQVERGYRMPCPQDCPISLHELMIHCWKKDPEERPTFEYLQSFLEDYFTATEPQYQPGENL
UniProt Q16512, sequence (whole entry, looked up): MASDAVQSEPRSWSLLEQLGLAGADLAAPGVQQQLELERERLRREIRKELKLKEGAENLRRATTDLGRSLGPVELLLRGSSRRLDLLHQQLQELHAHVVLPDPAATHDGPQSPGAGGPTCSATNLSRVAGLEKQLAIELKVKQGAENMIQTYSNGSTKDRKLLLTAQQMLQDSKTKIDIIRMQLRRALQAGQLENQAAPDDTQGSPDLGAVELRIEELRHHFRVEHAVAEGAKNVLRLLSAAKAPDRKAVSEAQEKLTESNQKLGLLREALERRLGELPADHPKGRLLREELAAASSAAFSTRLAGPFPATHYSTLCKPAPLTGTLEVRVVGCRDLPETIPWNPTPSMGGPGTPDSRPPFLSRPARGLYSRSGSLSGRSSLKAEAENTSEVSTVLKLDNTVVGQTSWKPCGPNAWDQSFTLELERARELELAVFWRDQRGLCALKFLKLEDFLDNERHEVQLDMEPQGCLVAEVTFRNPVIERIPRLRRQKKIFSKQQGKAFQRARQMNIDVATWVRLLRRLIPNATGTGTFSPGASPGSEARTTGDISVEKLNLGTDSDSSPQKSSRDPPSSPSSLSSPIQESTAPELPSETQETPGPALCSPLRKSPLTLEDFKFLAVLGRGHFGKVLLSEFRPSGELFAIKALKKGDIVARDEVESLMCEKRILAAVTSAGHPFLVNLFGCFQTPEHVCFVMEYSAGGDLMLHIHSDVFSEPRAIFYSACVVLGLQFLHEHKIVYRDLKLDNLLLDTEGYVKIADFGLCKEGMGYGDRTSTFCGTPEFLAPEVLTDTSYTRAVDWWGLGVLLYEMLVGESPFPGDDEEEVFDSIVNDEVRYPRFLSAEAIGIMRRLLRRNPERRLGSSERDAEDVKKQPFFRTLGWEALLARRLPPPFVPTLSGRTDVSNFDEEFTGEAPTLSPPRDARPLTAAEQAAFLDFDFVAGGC
UniProt Q96RG2, sequence (whole entry, looked up): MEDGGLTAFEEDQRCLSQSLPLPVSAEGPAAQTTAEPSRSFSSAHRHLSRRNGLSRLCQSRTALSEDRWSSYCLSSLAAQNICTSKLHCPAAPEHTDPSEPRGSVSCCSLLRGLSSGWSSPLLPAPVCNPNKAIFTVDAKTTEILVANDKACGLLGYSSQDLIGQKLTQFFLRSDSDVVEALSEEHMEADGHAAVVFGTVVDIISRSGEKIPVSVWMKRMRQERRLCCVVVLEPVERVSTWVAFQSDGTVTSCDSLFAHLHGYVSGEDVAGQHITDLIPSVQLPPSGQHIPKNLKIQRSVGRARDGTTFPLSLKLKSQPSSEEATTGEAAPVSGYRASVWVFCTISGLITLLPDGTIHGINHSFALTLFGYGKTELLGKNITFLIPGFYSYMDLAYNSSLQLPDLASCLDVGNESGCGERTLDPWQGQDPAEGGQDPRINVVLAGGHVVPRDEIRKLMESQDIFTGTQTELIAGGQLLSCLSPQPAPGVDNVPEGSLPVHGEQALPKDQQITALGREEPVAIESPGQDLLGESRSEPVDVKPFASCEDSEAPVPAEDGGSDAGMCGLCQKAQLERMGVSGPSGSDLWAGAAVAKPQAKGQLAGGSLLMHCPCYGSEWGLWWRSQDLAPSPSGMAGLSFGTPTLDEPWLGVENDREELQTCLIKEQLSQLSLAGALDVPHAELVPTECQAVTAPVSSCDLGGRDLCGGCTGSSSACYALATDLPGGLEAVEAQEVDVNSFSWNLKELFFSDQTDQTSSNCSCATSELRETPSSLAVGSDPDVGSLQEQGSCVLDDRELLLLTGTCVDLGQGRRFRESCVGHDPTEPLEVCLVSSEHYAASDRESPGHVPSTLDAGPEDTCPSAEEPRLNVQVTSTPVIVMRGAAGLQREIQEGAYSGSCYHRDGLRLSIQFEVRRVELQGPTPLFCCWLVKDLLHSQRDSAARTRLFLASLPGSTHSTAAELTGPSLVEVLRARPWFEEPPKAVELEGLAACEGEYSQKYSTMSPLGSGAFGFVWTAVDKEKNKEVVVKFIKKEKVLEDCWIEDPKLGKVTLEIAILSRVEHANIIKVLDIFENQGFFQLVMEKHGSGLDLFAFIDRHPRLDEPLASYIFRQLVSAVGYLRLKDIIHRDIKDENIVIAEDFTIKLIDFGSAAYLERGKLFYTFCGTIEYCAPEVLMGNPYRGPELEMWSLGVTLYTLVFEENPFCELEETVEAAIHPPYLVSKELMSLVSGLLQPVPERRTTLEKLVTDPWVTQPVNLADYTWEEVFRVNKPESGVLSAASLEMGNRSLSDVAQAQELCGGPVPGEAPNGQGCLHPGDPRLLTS
UniProt Q08881, sequence (whole entry, looked up): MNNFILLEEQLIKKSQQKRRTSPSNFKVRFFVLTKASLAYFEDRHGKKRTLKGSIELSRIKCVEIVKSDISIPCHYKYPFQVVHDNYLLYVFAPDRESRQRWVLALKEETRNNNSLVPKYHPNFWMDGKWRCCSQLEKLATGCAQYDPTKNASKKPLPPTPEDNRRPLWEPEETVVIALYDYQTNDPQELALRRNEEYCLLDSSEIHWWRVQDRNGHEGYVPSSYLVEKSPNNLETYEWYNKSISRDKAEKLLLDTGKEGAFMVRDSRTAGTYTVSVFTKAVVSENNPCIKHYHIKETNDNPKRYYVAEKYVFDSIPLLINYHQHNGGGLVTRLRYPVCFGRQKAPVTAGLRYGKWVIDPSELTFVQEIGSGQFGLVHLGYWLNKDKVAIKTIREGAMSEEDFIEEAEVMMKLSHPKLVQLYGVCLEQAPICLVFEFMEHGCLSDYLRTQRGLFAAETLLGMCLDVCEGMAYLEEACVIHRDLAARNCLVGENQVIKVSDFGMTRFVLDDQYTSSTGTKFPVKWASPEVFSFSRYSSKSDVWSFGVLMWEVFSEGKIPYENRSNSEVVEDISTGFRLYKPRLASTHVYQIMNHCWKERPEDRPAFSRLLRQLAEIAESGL

Study 1 — concentration: 50 µM
Target: Bromodomain-containing protein 4, BD1 (BRD4, Homo sapiens, UniProt O60885)
Structure (SMILES)	inhibition
N#CCNC(=O)c1ccc(-c2ccnc(Nc3ccc(N4CCOCC4)cc3)n2)cc1	15.7%
Cc1nc(NC(=O)N2CCC[C@H]2C(N)=O)sc1-c1ccnc(C(C)(C)C(F)(F)F)c1	2.3%
CO[C@@H](C(=O)N1Cc2n[nH]c(NC(=O)c3ccc(N4CCN(C)CC4)cc3)c2C1)c1ccccc1	-0.85%
CC(C)[C@H](CO)Nc1nc(Nc2cccc(Cl)c2)c2ncn(C(C)C)c2n1	46%
Cn1cnc2c(F)c(Nc3ccc(Br)cc3Cl)c(C(=O)NOCCO)cc21	3.1%
Cc1c(NC(=O)OC[C@@H]2COCCN2)cn2ncnc(Nc3ccc4c(cnn4Cc4cccc(F)c4)c3)c12	77.2%
Nc1cc(C(F)(F)F)c(-c2cc(N3CCOCC3)nc(N3CCOCC3)n2)cn1	24.9%
Cc1c(CN2CCN(C(=O)[C@H](C)O)CC2)sc2c(N3CCOCC3)nc(-c3cnc(N)nc3)nc12	8.1%

Study 2 — observed: enzyme activity; action: inhibitor; concentration: 0.5 µM; baseline: control
Structure (SMILES): CN(C)S(=O)(=O)c1ccc2c(c1)/C(=C/c1cc3c([nH]1)CCCC3)C(=O)N2
target	remaining activity [%]
MATK (Homo sapiens, UniProt P42679)	104
NEK11 (Homo sapiens, UniProt Q8NG66)	82.5
NLK (Homo sapiens, UniProt Q9UBE8)	99.7
ITK (Homo sapiens, UniProt Q08881)	61.2
LIM domain kinase 1 (LIMK1, Homo sapiens, UniProt P53667)	60.7
PKN1 (Homo sapiens, UniProt Q16512)	91.2
PASK (Homo sapiens, UniProt Q96RG2)	95.6
FYN (Homo sapiens, UniProt P06241)	33.1

Other studies, line by line
Substance	tested on	assay	system	conditions	scale	endpoint	result
AAAVRKPIVLKR	human cyclin D1	peptide binding, yeast competitive growth sequencing	peptide, Saccharomyces cerevisiae, cyclin D1-Cln2 fusion	concentration not given, peptide tiling library	baseline: Cln2 fusion control, direction not given	binding enrichment score	1.09
C[C@]12C=CC(=O)C=C1CC[C@@H]1[C@@H]2[C@@H](O)C[C@@]2(C)[C@H]1CC[C@]2(O)C(=O)COC(=O)CCC(=O)O	Plasmodium berghei	–	Huh-7, liver stage	10 µM, 24 h	baseline: control	parasite load	104%
CN(C(=O)c1ccccc1)c1cc(N(C)c2ccc3c(c2)CCc2ccc(C(=O)NCCN4CCOCC4)cc2C3=O)ccc1F	pknB (Mycobacterium tuberculosis, UniProt P9WI81)	cell-free assay, competition with immobilised ligand	–	1 µM	–	remaining binding	88%
Cc1cc2c(C(N)=O)c(N)n(-c3c(C)ccc(O)c3C)c2nc1C	HCC1569	CDK1 Thr14 phosphorylation, Jess immunoblot	–	concentration not given, after washout	–	time to return to baseline	≤ 2 h

For quick reference, copied from above (other studies, line by line):
Substance	tested on	assay	system	conditions	scale	endpoint	result
AAAVRKPIVLKR	human cyclin D1	peptide binding, yeast competitive growth sequencing	peptide, Saccharomyces cerevisiae, cyclin D1-Cln2 fusion	concentration not given, peptide tiling library	baseline: Cln2 fusion control, direction not given	binding enrichment score	1.09
Cc1cc2c(C(N)=O)c(N)n(-c3c(C)ccc(O)c3C)c2nc1C	HCC1569	CDK1 Thr14 phosphorylation, Jess immunoblot	–	concentration not given, after washout	–	time to return to baseline	≤ 2 h
